# Published values pooled from the literature.
# Compare with care: the assays were run in different laboratories.
# Organism: Escherichia coli
Structure (SMILES),test,test system,setting,MIC
CCOC(=O)Cc1n[nH]c2nc(N)[nH]c(=O)c2c1=O,"microbial growth, broth dilution",BW25113,18 h,> 100 µg/mL
CC[C@H]1OC(=O)[C@H](C)[C@@H](OC(=O)Cc2ccc(Cl)cc2)[C@H](C)[C@@H](O[C@@H]2O[C@H](C)C[C@H](N(C)C)[C@H]2O)[C@](C)(OC)C[C@@H](C)C(=O)[C@H](C)[C@@H](O)[C@]1(C)O,microbial growth,ATCC25922,,> 32 µg/mL
CC[C@H](C)[C@H](NC(=O)[C@H](CCC(N)=O)NC(=O)[C@H](Cc1ccccc1)NC(=O)[C@H](CC(N)=O)NC(=O)[C@H](CCCCN)NC(=O)[C@H](CC(C)C)NC(=O)[C@H](CCCNC(=N)N)NC(=O)[C@H](CCCCN)NC(=O)[C@H](CCCCN)NC(=O)[C@@H](NC(=O)[C@H](CO)NC(=O)[C@H](CCCCN)NC(=O)CNC(=O)[C@H](CC(C)C)NC(=O)[C@H](CCCCN)NC(=O)[C@H](CCCCN)NC(=O)[C@H](CC(C)C)NC(=O)[C@H](CCCCN)NC(=O)[C@H](CCCCN)NC(=O)[C@H](CCCNC(=N)N)NC(=O)[C@H](CC(C)C)NC(=O)CNC(=O)[C@@H](N)CCCNC(=N)N)[C@@H](C)CC)C(=O)NCC(=O)N[C@@H](Cc1ccccc1)C(=O)N[C@@H](CO)C(=O)N[C@H](C(=O)N1CCC[C@H]1C(=O)N[C@@H](Cc1ccccc1)C(=O)N[C@@H](C)C(=O)NCC(=O)O)C(C)C,broth microdilution,ATCC 25922,"16 h, 37 °C, cation-adjusted Mueller-Hinton broth",8 µg/mL
COc1ccc(/C=N/[C@@H]2CCCC[C@@H]2/N=C/c2c(O)ccc3ccc(OC)cc23)c(O)c1,"microbial growth, broth dilution",,,> 40 µM
COc1c(NC(=O)c2ccc(NC(=O)[C@H](Cc3c[nH]nn3)NC(=O)c3ccc(NC(=O)/C(C)=C/c4ccc(O)cc4)cc3)cc2)ccc(C(=O)Nc2ccc(C(=O)O)c(O)c2)c1O,broth microdilution,BW25113,,0.031 µg/mL
C#CCNC(=O)C1(O/N=C(\C(=O)N[C@@H]2C(=O)N(OS(=O)(=O)O)C2(C)C)c2csc(N)n2)CC1,"microbial growth, agar dilution",ATCC25,,4 µg/mL
COc1nc(C(=O)Nc2ccc(C(=O)O)c(O)c2OC)ccc1NC(=O)c1ccc(NC(=O)[C@H](Cc2c[nH]nn2)NC(=O)c2ccc(NC(=O)/C(C)=C/c3ccc(O)cc3)cc2)cc1,broth microdilution,ciprofloxacin-sensitive,,0.031 µg/mL
COc1cc2c(cc1OC)-c1cc3ccc(OC)c(OC)c3c[n+]1CC2.[Cl][Fe-]([Cl])([Cl])[Cl],,,"24 h, 37 °C",> 800 µM
c1ccc(CN2CCOCCOCCN(CCCCCCCCCCCCN3CCOCCOCCN(CCCCCCCCCCCCN4CCOCCOCCN(Cc5ccccc5)CCOCCOCC4)CCOCCOCC3)CCOCCOCC2)cc1,,tetracycline-resistant (pBR322),,5 µM
CC(C)C[C@@H]1NC(=O)[C@@H](CC(C)C)NC(=O)[C@H](CCN)NC(=O)[C@@H](NC(=O)[C@H](CCN)NC(=O)[C@@H](N)[C@@H](C)O)CCNC(=O)[C@H]([C@@H](C)O)NC(=O)[C@H](CCN)NC(=O)[C@H](CCN)NC1=O,broth microdilution,ATCC 25922,18 to 20 h,> 128 µg/mL
CCC(CC)c1cc(CCN2CCCN(C(=O)OC(C)(C)C)CC2)nc(-c2ccccn2)n1,"microbial growth, broth dilution",ATCC25922,,> 64 µg/mL
COc1ccc2ccc(O)c(/C=N/[C@H]3CCCC[C@H]3/N=C/c3ccc(F)cc3O)c2c1,"microbial growth, broth dilution",,clinical isolate,> 40 µM
COc1cc(C(=O)Nc2ccc(C(=O)O)c(O)c2OC)ccc1NC(=O)c1ccc(NC(=O)[C@H](Cc2c[nH]nn2)NC(=O)c2ccc(NC(=O)/C(C)=C/c3ccc(O)cc3)cc2)cc1,broth microdilution,BW25113,,0.125 µg/mL
Cn1nc(C(=O)O)c(=O)c2c(=O)[nH]c(N)nc21,"microbial growth, broth dilution",BW25113,18 h,> 100 µg/mL
N=C(N)NCCC[C@@H]1NC(=O)[C@H](CCCNC(=N)N)NC(=O)[C@@H](CCCNC(=N)N)NC(=O)[C@H](C(c2ccccc2)c2ccccc2)NC(=O)[C@H](C(c2ccccc2)c2ccccc2)NC(=O)[C@H](C(c2ccccc2)c2ccccc2)NC(=O)[C@H](CCCNC(=N)N)NC1=O,,ATCC 25922,,16 µg/mL
CCOc1c(NC(=O)c2ccc(NC(=O)[C@H](Cc3c[nH]nn3)NC(=O)c3ccc(NC(=O)/C(C)=C/c4ccc(O)cc4)cc3)cc2)ccc(C(=O)Nc2ccc(C(=O)O)c(O)c2OC)c1O,broth microdilution,DSM 1116,,0.031 µg/mL
C#CCO/N=C(\C(=O)N[C@@H]1C(=O)N(S(=O)(=O)O)[C@H]1C)c1csc(N)n1,"microbial growth, agar dilution",ATCC25,,0.5 µg/mL
CCOc1c(NC(=O)c2ccc(NC(=O)c3ccc(NC(=O)[C@H](Cc4c[nH]nn4)NC(=O)c4ccc(NC(=O)/C(C)=C/c5ccc(O)cc5)cc4)cc3)c(OCC)c2O)ccc(C(=O)O)c1O,broth microdilution,ciprofloxacin-resistant,,0.031 µg/mL
CC[C@H]1OC(=O)[C@H](C)[C@@H](OC(=O)Cc2ccccc2[N+](=O)[O-])[C@H](C)[C@@H](O[C@@H]2O[C@H](C)C[C@H](N(C)C)[C@H]2O)[C@](C)(OC)C[C@@H](C)C(=O)[C@H](C)[C@@H](O)[C@]1(C)O,,tolC,,2 µg/mL
C[C@H](CS)C(=O)Nc1cccc(-c2nn[nH]n2)c1,"broth microdilution, item: meropenem",DH5α pET28-lacUV5 control,"200 µM, together with: meropenem",< 0.125 µg/mL
CC[C@H]1OC(=O)[C@H](C)[C@@H](OC(=O)Cc2cccc(Cl)c2)[C@H](C)[C@@H](O[C@@H]2O[C@H](C)C[C@H](N(C)C)[C@H]2O)[C@](C)(OC)C[C@@H](C)C(=O)[C@H](C)[C@@H](O)[C@]1(C)O,microbial growth,ATCC25922,,> 32 µg/mL
COc1c(C)c(OS(=O)(=O)c2ccccc2)c(C)c2c1C(=O)CC(c1ccccc1)O2 (centres unmarked),"microbial growth, broth dilution",ATCC25922,,5000 µg/mL
COc1ccc2ccc(O)c(/C=N/[C@H]3CCCC[C@H]3/N=C/c3cc(F)ccc3O)c2c1,"microbial growth, broth dilution",,,> 40 µM
C/C(=C\c1ccc(O)cc1)C(=O)Nc1ccc(C(=O)N[C@@H](Cc2c[nH]nn2)C(=O)Nc2ccc(C(=O)Nc3ccc(C(=O)Nc4ccc(C(=O)O)c(O)c4)c(O)c3)cc2)cc1,broth microdilution,DSM 1116,,0.125 µg/mL
COc1c(C)c(OC(=O)c2ccc3ccccc3c2)c(C)c(O)c1C(=O)/C=C/c1ccccc1,"microbial growth, broth dilution",ATCC25922,,5000 µg/mL
CCCCCCCC[N+](C)(C)CCCCCCOc1cc(OCCCCCC[N+](C)(C)CCCCCCCC)cc(OCCCCCC[N+](C)(C)CCCCCCCC)c1.[Br-].[Br-].[Br-],,MC4100,,1 µM
CN[C@H](CC(C)C)C(=O)N[C@H]1C(=O)N[C@@H](CC(N)=O)C(=O)N[C@H]2C(=O)N[C@H]3C(=O)N[C@H](C(=O)N[C@H](C(=O)NCC(N)=O)c4cc(O)cc(O)c4-c4cc3ccc4O)[C@H](O)c3ccc(c(Cl)c3)Oc3cc2cc(c3O[C@@H]2O[C@H](CO)[C@@H](O)[C@H](O)[C@H]2O[C@H]2C[C@](C)(NCc3ccc(OCc4cn(CC(=O)N[C@H](C(=O)N[C@@H](CCN)C(=O)N[C@H]5CCNC(=O)[C@H]([C@@H](C)O)NC(=O)[C@H](CCN)NC(=O)[C@H](CCN)NC(=O)[C@H](CC(C)C)NC(=O)[C@@H](CC(C)C)NC(=O)[C@H](CCN)NC5=O)[C@@H](C)O)nn4)c(OC)c3)[C@H](O)[C@H](C)O2)Oc2ccc(cc2Cl)[C@H]1O,broth microdilution,"ATCC 35218, cation-adjusted Mueller-Hinton broth","18 to 20 h, 37 °C, 0.002% polysorbate 80",8 µg/mL
CC[C@H]1OC(=O)[C@H](C)[C@@H](OC(=O)Cc2c(F)cc([N+](=O)[O-])cc2F)[C@H](C)[C@@H](O[C@@H]2O[C@H](C)C[C@H](N(C)C)[C@H]2O)[C@](C)(OC)C[C@@H](C)C(=O)[C@H](C)[C@@H](O)[C@]1(C)O,microbial growth,ATCC25922,,> 32 µg/mL
COc1ccc(/N=N/C(=S)N2CCCC2)cc1,"microbial growth, broth dilution","ATCC 8739, ATCC8739",24 h,> 50 µM
CC[C@H](C)[C@H](NC(=O)[C@@H](CCCNC(=N)N)NC(=O)[C@H](CCCNC(=N)N)NC(=O)[C@@H]1CCCN1C(=O)[C@@H]1CCCN1C(=O)[C@H](CCCNC(=N)N)NC(=O)[C@@H]1CCCN1C(=O)[C@H](CCCNC(=N)N)NC(=O)[C@@H]1CCCN1C(=O)[C@H](CC(C)C)NC(=O)[C@H](Cc1ccc(O)cc1)NC(=O)[C@@H]1CCCN1C(=O)[C@@H]1CCCN1C(=O)[C@H](CCCNC(=N)N)NC(=O)[C@H](CC(=O)O)NC(=O)[C@@H](N)C(C)C)C(=O)N[C@@H](Cc1ccc(O)cc1)C(=O)N[C@@H](CC(N)=O)C(=O)N[C@H](CCCNC(=N)N)C(N)=O,broth microdilution,BW25113,"18 h, 37 °C, 25% MHB2",8 µg/mL
CCCCCC[N+](C)(C)CCCCCCCCCCOc1cc(OCCCCCCCCCC[N+](C)(C)CCCCCC)cc(OCCCCCCCCCC[N+](C)(C)CCCCCC)c1.[Br-].[Br-].[Br-],,MC4100,,4 µM
COc1c(NC(=O)c2ccc(NC(=O)c3ccc(NC(=O)[C@H](CC#N)NC(=O)c4ccc(NC(=O)/C(C)=C/c5ccc(O)cc5)cc4)cc3)c(OC)c2O)ccc(C(=O)O)c1O,"microbial growth, broth dilution",DSM1116,,0.063 µg/mL
C=C[C@H]1CC1(NC(=O)C12CC(NC(=O)c3ccc(C#N)cc3)(C1)C2)C(=O)Nc1ccc(C(=O)Nc2ccc(C(=O)Nc3ccc(C(=O)O)cc3)c(O)c2OC(C)C)cc1 (some centres unmarked),,BW25113 ΔtolC,,0.04 µg/mL
CC[C@H]1OC(=O)[C@H](C)[C@@H](OC(=O)Cc2ccc(N)cc2)[C@H](C)[C@@H](O[C@@H]2O[C@H](C)C[C@H](N(C)C)[C@H]2O)[C@](C)(OC)C[C@@H](C)C(=O)[C@H](C)[C@@H](O)[C@]1(C)O,,lpxC,,> 32 µg/mL
CCCCCCCCn1cc[n+](CCCCOc2cc(OCCCC[n+]3ccn(CCCCCCCC)c3)cc(OCCCC[n+]3ccn(CCCCCCCC)c3)c2)c1.[Br-].[Br-].[Br-],,MC4100,,0.5 µM

# For quick reference, copied from above:
Structure (SMILES),test,test system,setting,MIC
COc1c(C)c(OC(=O)c2ccc3ccccc3c2)c(C)c(O)c1C(=O)/C=C/c1ccccc1,"microbial growth, broth dilution",ATCC25922,,5000 µg/mL
CC[C@H]1OC(=O)[C@H](C)[C@@H](OC(=O)Cc2ccc(Cl)cc2)[C@H](C)[C@@H](O[C@@H]2O[C@H](C)C[C@H](N(C)C)[C@H]2O)[C@](C)(OC)C[C@@H](C)C(=O)[C@H](C)[C@@H](O)[C@]1(C)O,microbial growth,ATCC25922,,> 32 µg/mL
COc1ccc(/C=N/[C@@H]2CCCC[C@@H]2/N=C/c2c(O)ccc3ccc(OC)cc23)c(O)c1,"microbial growth, broth dilution",,,> 40 µM
CC(C)C[C@@H]1NC(=O)[C@@H](CC(C)C)NC(=O)[C@H](CCN)NC(=O)[C@@H](NC(=O)[C@H](CCN)NC(=O)[C@@H](N)[C@@H](C)O)CCNC(=O)[C@H]([C@@H](C)O)NC(=O)[C@H](CCN)NC(=O)[C@H](CCN)NC1=O,broth microdilution,ATCC 25922,18 to 20 h,> 128 µg/mL
CCOC(=O)Cc1n[nH]c2nc(N)[nH]c(=O)c2c1=O,"microbial growth, broth dilution",BW25113,18 h,> 100 µg/mL
C/C(=C\c1ccc(O)cc1)C(=O)Nc1ccc(C(=O)N[C@@H](Cc2c[nH]nn2)C(=O)Nc2ccc(C(=O)Nc3ccc(C(=O)Nc4ccc(C(=O)O)c(O)c4)c(O)c3)cc2)cc1,broth microdilution,DSM 1116,,0.125 µg/mL
